Published values collected from several papers.
Lines come from different studies, so protocols differ. Several values in a cell are separate wells, animals, samples, runs or records. Numbers after ± are the reported error.
UniProt P10632, sequence (whole entry, looked up): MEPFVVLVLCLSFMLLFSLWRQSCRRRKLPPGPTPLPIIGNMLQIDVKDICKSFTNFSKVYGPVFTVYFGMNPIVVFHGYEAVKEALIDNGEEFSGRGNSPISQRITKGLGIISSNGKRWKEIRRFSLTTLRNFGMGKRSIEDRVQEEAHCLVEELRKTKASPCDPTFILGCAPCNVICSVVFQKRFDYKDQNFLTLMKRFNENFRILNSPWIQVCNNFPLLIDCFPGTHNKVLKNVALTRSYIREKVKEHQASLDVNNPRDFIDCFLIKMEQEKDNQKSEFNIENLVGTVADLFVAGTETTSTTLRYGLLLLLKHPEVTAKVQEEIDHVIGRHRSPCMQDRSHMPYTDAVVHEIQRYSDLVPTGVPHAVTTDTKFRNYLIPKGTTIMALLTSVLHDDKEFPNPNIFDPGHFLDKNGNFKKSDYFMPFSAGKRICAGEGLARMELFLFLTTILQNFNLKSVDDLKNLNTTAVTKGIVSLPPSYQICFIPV
UniProt P08684, sequence (whole entry, looked up): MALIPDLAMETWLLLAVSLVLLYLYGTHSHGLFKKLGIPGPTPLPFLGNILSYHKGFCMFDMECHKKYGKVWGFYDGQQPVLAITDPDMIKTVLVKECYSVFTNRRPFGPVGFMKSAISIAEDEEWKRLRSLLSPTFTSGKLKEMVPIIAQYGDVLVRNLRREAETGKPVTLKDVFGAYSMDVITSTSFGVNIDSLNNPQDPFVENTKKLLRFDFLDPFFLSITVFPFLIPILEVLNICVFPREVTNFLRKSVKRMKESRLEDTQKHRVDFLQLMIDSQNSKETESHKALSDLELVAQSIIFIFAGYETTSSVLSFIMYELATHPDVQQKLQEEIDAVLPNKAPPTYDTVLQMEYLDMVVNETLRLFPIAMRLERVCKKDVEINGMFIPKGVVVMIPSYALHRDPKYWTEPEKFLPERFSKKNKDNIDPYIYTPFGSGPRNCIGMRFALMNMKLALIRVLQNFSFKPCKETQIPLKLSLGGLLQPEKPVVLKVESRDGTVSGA

| SMILES | tested on | test | system | conditions | how to read | endpoint | value |
| --- | --- | --- | --- | --- | --- | --- | --- |
| N#C[C@@H]1CC(F)(F)CN1C(=O)CNC(=O)c1ccnc2c(NC(=O)[C@H](CCCCNC(=O)CCOCCOCCOCCOCCOCCOCCNC(=O)CN3CCN(CC(=O)[O-])CCN(CC(=O)[O-])CCN(CC(=O)[O-])CC3)NC(=O)CCCc3ccc(I)cc3)cccc12.[177Lu+3] | U-87 MG tumour model | – | host not given, stomach | 48 h, tumour-bearing | – | tracer uptake | 0.25 %ID/g |
| CC(C)OCCOCc1ccc(OCC(O)CN(N=O)C(C)C)cc1 (stereo not shown) | Salmonella typhimurium | Ames test | TA100 | 1580 µg/plate, 30 % rat S9 | baseline: solvent control | revertant fold increase | 0.8 fold |
| Brc1ccccc1-c1cc(CN2c3ccccc3C=Cc3ccccc32)on1 | BJ | cytotoxicity | – | – | – | IC50 | > 30 µM |
| CCN(CC)CC#CCNc1ccnc2cc(Cl)ccc12 | Salmonella typhimurium | mini-Ames test | TA1535 | 1000.0 µg/well, with rat liver S9 | – | revertants | 1 revertants/well |
| O=C1NC2(CC2)COc2ncc(F)cc2[C@H]2COCCN2c2ccn3ncc1c3n2 | Salmonella typhimurium | Ames test | TA98 | 1500 µg/plate, 48 h, with: without S9 | – | revertant colonies | 13 ± 6 revertants/plate |
| COc1cccc(OC)c1-c1cc(C(=O)NC2(C(=O)O)C3CC4CC(C3)CC2C4)nn1-c1ccc(C(=O)N(C)CCCN(C)CCCN(C)C(=O)[C@H](CCCCNC(=O)[C@H](CC(C)C)NC(=O)C2OC2C(=O)O)NC(=O)CN2CCN(CC(=O)[O-])CCN(CC(=O)[O-])CCN(CC(=O)[O-])CC2)cc1C(C)C.[177Lu+3] (mixture of isomers) | HT-29 tumour model | – | host not given, pancreas | 4 h, tumour-bearing | – | tracer uptake | 0.69 %ID/g |
| N#C[C@@H]1CCCN1C(=O)CNC(=O)c1ccnc2ccc(OCCCN3CCN(C(=O)CCc4ccc(O)c(CN5CCN6CC(=O)[O][Al-]([18F])([O]C(=O)C5)[O]c5ccc(CCC(=O)N7CCN(CCCOc8ccc9nccc(C(=O)NCC(=O)N%10CCC[C@H]%10C#N)c9c8)CC7)cc5C6)c4)CC3)cc12 (stereo partly shown) | U-87 MG tumour model | – | host not given, stomach | 2 h, tumour-bearing | – | tracer uptake | 2.88 %ID/g |
| O=C(Nc1cnccc1-c1ccc([18F])nc1)c1ccnc(NC(=O)C2CC2)c1 | – | – | FVB/NJ mice (both sexes), eyes | intravenous, dose not given, 120 min | – | SUV | 0.053 |
| COc1cccc(OC)c1-c1cc(C(=O)NC2(C(=O)O)C3CC4CC(C3)CC2C4)nn1-c1ccc(C(=O)N(C)CCOCCOCCN(C)C(=O)[C@H](CCCCNC(=O)[C@H](CC(C)C)NC(=O)C2OC2C(=O)O)NC(=O)CN2CCN(CC(=O)[O-])CCN(CC(=O)[O-])CCN(CC(=O)[O-])CC2)cc1C(C)C.[177Lu+3] (mixture of isomers) | HT-29 tumour model | – | host not given, stomach | 24 h, tumour-bearing | – | tracer uptake | 0.11 %ID/g |
| CC(C)(O)c1ncc([S@](N)(=O)=NC(=O)Nc2c3c(cc4c2CCC4)CCC3)s1 | – | measured: nervous system disorders | healthy human subjects | oral, dose not given, 14 days, all active doses | – | share of subjects with TEAEs | 30% |
| C1=Cc2ccccc2N(Cc2cc(-c3ccc(OCc4ccccc4)cc3)no2)c2ccccc21 | BJ | cytotoxicity | – | – | – | IC50 | > 30 µM |
| Nc1nc2cc(C(=O)c3ccc(F)cc3)ccc2[nH]1 | Salmonella typhimurium | Ames preincubation test | TA98 | 625.0 µg/plate, 3 days, without S9 | – | revertants per plate | 17.7 revertants/plate |
| N#C[C@@H]1CCCN1C(=O)CNC(=O)c1ccnc2ccc(OCCCN3CCN(C(=O)CCc4ccc5c(c4)CN4CCN6CC(=O)[O][68Ga-]([O]C(=O)C4)([O]5)[O]c4ccc(CCC(=O)N5CCN(CCCOc7ccc8nccc(C(=O)NCC(=O)N9CCC[C@H]9C#N)c8c7)CC5)cc4C6)CC3)cc12 | U-87 MG tumour model | – | host not given, pancreas | 1 h, tumour-bearing | – | tracer uptake | 2.48 %ID/g |
| CN1CCCNC(=O)c2cccc(c2)C(=O)NCCCN(C)CCCNc2cccc3c2C(=O)c2cccc(c2C3=O)NCCC1 | SAS | cell growth or viability, CCK-8 | – | 5 µM, 48 h | – | viability | 12.9% |
| O=C(CN1CN(c2ccccc2)C2(CCN(C(=O)c3cc4cn[nH]c4cn3)CC2)C1=O)NCC(F)(F)F | Cytochrome P450 3A4 (CYP3A4, Homo sapiens, UniProt P08684) | enzyme activity, inhibitor | – | – | – | IC50 | > 50 µM |
| O=C(Nc1cnccc1-c1ccc([18F])cc1)c1ccnc(NC(=O)C2CC2)c1 | – | – | mice, transgenic, GSK-3β, early-stage, blood | intravenous, dose not given, 120 min, with: tariquidar 15 mg/kg i.v. pre-dose | – | SUV | 0.22 |
| CNC(=O)C1CCCN(C(=O)C2CC3CCC2N3C(=O)[C@@H]2C[C@@H](O)CN2C(=O)NCc2cccc(Cl)c2F)C1 (mixture of isomers) | Cytochrome P450 2C8 (CYP2C8, Homo sapiens, UniProt P10632) | preincubation with NADPH | human | 16.7 µM | baseline: negative control | remaining activity | 67.4% and 80.6% and 82.9% |
| CC(C)Cc1ccc(C(C)C(=O)N[C@@H](CCCCNC(=O)CCOCCOCCOCCOCCOCCOCCNC(=O)CN2CCN(CC(=O)[O-])CCN(CC(=O)[O-])CCN(CC(=O)[O-])CC2)C(=O)Nc2cccc3c(C(=O)NCC(=O)N4CC(F)(F)C[C@H]4C#N)ccnc23)cc1.[177Lu+3] (stereo partly shown) | U-87 MG tumour model | – | host not given, blood | 48 h, tumour-bearing | – | tracer uptake | 0.15 %ID/g |
| O=C1C2CC3CC1CC(C(=O)N1CCN(c4ccc([N+](=O)[O-])c5ncccc45)CC1)(C3)C2 | Salmonella typhimurium | Ames test | TA1535 | 0.31 µg/well, without S9 | baseline: vehicle | revertant fold increase | 1 |
| C=C(NC(=O)c1csc(-c2nc3c(cc2O)-c2nc(cs2)C(=O)NC(C(C)O)C(=O)NC(=C(C)OC)c2nc(cs2)C(=O)NC2c4nc(cs4)C(=O)NC(COC(=O)c4c5c6c(cccc6n4O)COC(=O)C(OC4CC(C)(O)C(N(C)C)C(C)O4)C2OC5)c2nc-3cs2)n1)C(N)=O (stereo not shown) | – | – | male Sprague-Dawley rats, plasma | intravenous infusion, 6 mg/kg | – | AUC(0-inf) | 1840 ng·h/mL |
| N#C[C@@H]1CCCN1C(=O)CNC(=O)c1ccnc2ccc(OCCCN3CCN(C(=O)CCc4ccc5c(c4)CN4CCN(Cc6cc(CCC(=O)O)ccc6O)CC(=O)[O][Al-]([18F])([O]C(=O)C4)[O]5)CC3)cc12 (stereo partly shown) | U-87 MG tumour model | – | host not given, pancreas | 2 h, tumour-bearing | – | tracer uptake | 1.34 %ID/g |
| Cc1nc2cccc(OCC(C)(C)C(=O)NC(C)C)c2c(N)c1C(=O)[O-].[Na+] | human peripheral blood lymphocytes | – | – | 250 g/mL, 20 h, without S9 | – | relative mitotic index | 108% |

Some of these lines once more:
| SMILES | tested on | test | system | conditions | how to read | endpoint | value |
| --- | --- | --- | --- | --- | --- | --- | --- |
| C1=Cc2ccccc2N(Cc2cc(-c3ccc(OCc4ccccc4)cc3)no2)c2ccccc21 | BJ | cytotoxicity | – | – | – | IC50 | > 30 µM |
| Nc1nc2cc(C(=O)c3ccc(F)cc3)ccc2[nH]1 | Salmonella typhimurium | Ames preincubation test | TA98 | 625.0 µg/plate, 3 days, without S9 | – | revertants per plate | 17.7 revertants/plate |
